Measurements from different studies.
Each line is one published result; not all experiments were run side by side. ± gives the spread as reported.

| Compound | cell line | test | conditions | how to read | quantity | result |
| --- | --- | --- | --- | --- | --- | --- |
| COc1cc([C@@H]2c3cc4c(cc3[C@@H](O[C@@H]3O[C@@H]5CO[C@@H](C)O[C@H]5[C@H](O)[C@H]3O)[C@H]3COC(=O)[C@H]23)OCO4)cc(OC)c1O | HeLa expressing wild-type P-gp | cell viability | 48 h |  | IC50 | 4.5 ± 0.35 µM |
| Cc1cc(Nc2ncc(Cl)c(Nc3ccccc3S(=O)(=O)C(C)C)n2)c(OC(C)C)cc1C1CCNCC1 | Ba/F3 EML4-ALK v3, no mutation | cell viability |  |  | IC50 | 0.0107 µM |
| COc1cc2nccc(Oc3ccc(NC(=O)C4(C(=O)Nc5ccc(F)cc5)CC4)cc3)c2cc1OC | SUP-M2 (NPM-ALK) | cell growth | 3 days |  | IC50 | 7 ± 0.76 µM |
| C=CC(=O)NC1CCN(c2ncc3ncnc(Nc4ccc(Oc5ccc6c(c5)ncn6C)c(C)c4)c3n2)CC1 | Ba/F3 expressing HER2 L755A | cell growth, inhibitor, CellTiter-Glo |  |  | IC50 | 0.0217 µM |
| CC[C@]1(O)C[C@H]2CN(CCc3c([nH]c4ccccc34)[C@@](C(=O)OC)(c3cc4c(cc3OC)N(C=O)[C@H]3[C@@](O)(C(=O)OC)[C@H](OC(C)=O)[C@]5(CC)C=CCN6CC[C@]43[C@@H]65)C2)C1 | CHP-212 resistant subline R2 (USP7 V517F heterozygous) | cell viability |  |  | IC50 | 0.0235 µM |
| C[C@H](Nc1ccc2c(c1)OCCn1cc(N3C(=O)OC[C@H]3C(F)F)nc1-2)C(N)=O | HCC1954 | western blot, measured: phospho-S6 Ser235/Ser236 | 2 h |  | IC50 | 0.0331 µM |
| Cc1c(C(=O)O)ccc2c3n(nc12)[C@@H]1[C@H](C3)N(CC2CC2)[C@@]2(C(=O)Nc3cc(Cl)ccc32)[C@H]1c1cccc(Cl)c1F | human megakaryocyte progenitors | megakaryocyte colony formation | 10 to 12 days |  | IC50 | 0.025 µM |
| Cc1ncsc1-c1ccc([C@H](C)NC(=O)[C@@H]2C[C@@H](O)CN2C(=O)[C@@H](NC(=O)CN2CCN(c3cc(-c4ccccc4O)nnc3N)CC2)C(C)(C)C)cc1 | NCI-H522 SMARCA4/SMARCA2-deficient | cell viability, CellTiter-Glo | 7 days |  | IC50 | > 1 µM |
| COc1cc(-c2cc(C(C)=O)n3ccccc23)c(OC)cc1Cn1ccnc1 | MV4-11 | cell growth, CellTiter-Glo |  |  | IC50 | 0.07 µM |
| COc1cc2c(NC3CCN(C4CCCCC4)CC3)nc(N3CCCN(C(C)C)CC3)nc2cc1OCCCN1CCCCC1 | OCI-Ly1 |  | 0.5 µM, 120 h |  | viability | 129% |
| O=C(c1cc(Cc2n[nH]c(=O)c3ccccc23)ccc1F)N1CCN(C(=O)C2CC2)CC1 | A549 wild type | PARylation, inhibitor |  |  | IC50 | 0.0208 µM |
| COC[C@H](NC(=O)c1ccn(S(C)(=O)=O)c1)C(=O)Nc1nc(-c2cccc(N3C[C@@H](C)O[C@@H](C)C3)n2)cs1 | normal prostate epithelial cells | cell viability, CellTiter-Glo | 168 h |  | IC50 | 0.27 µM |
| C=CC(=O)N1CCC(COCC(=O)N2CCN(c3nc(-c4cnc(N)nc4C(F)F)nc(N4CCOC[C@@H]4C)n3)CC2)CC1 | HCC1954 | western blot, measured: phospho-PKB/Akt Ser473 | 2 h |  | IC50 | 0.0332 µM |
| Cc1cc(Nc2ncc(Cl)c(Nc3ccccc3S(=O)(=O)C(C)C)n2)c(OC(C)C)cc1C1CCNCC1 | SUP-M2 (NPM-ALK) | cell growth | 3 days |  | IC50 | 0.02 ± 0.003 µM |
| NC(=O)c1cccc2cn(-c3ccc([C@@H]4CCCNC4)cc3)nc12 | A549 wild type | PARylation, inhibitor |  |  | IC50 | 0.0167 µM |
| CO[C@H]1[C@H](O[C@H]([C@H]2O[C@@H](n3ccc(=O)[nH]c3=O)[C@H](O)[C@@H]2O)[C@H](NCCCNC(=O)[C@@H](NC(=O)[C@@H](NC(=O)N[C@H](C(=O)O)C(C)C)[C@@H]2CCN=C(N)N2)[C@@H](OC(=O)CCCCCCCCCCCCN(O)C(=N)N)C(C)C)C(=O)O)O[C@H](CN)[C@H]1O | MCF-10A and Vero | cell viability, WST-1 | range over panel |  | IC50 | > 35 µM |
| COc1cc2c(Oc3ccc(NC(=O)C4(C(=O)Nc5ccc(F)cc5)CC4)cc3F)ccnc2cc1OCCCN1CCOCC1 | SUP-M2 (NPM-ALK) | cell growth | 3 days |  | IC50 | 0.52 ± 0.04 µM |
| CC[C@@H](C)[C@H](N)C(=O)N1Cc2ccccc2C1 | MV4-11 | cell viability, CellTiter-Glo | day 5 |  | IC50 | 1.4 µM |
| CCCCCN1C[C@H](O)[C@@H](O)[C@H](O)[C@@H]1CO | GM2 AB-variant fibroblasts | lysosomal accumulation, LysoTracker staining | 8 days |  | IC50 | 1.7 µM |
| C[C@@H]1CN(C(=O)c2ccc(NC(=O)c3cc(O[C@H](C)c4c(Cl)ccc(F)c4Cl)c(N)nn3)cc2)C[C@H](C)N1 | ALK-fusion cell lines | cell viability |  |  | IC50 | 0.014 µM |
| CCCCN1C[C@H](O)[C@@H](O)[C@@H](O)[C@H]1CO | sample A patient fibroblasts | Gb3 level lowering, LC-MS/MS, measured: Gb3 d18:1/18:0 | 216 h |  | IC50 | 11 µM |
| CC(C)n1ncnc1-c1cn2c(n1)-c1ccc(O[C@@H](C)C(N)=O)cc1OCC2 | SW48 PIK3CA H1047R |  | 96 h |  | IC50 | 0.0271 µM |
| CCC(=O)N1CCC(COCC(=O)N2CCN(c3nc(-c4cnc(N)nc4C(F)F)nc(N4CCOC[C@@H]4C)n3)CC2)CC1 | HCC1954 | western blot, measured: phospho-S6 Ser235/Ser236 | 2 h |  | IC50 | 0.117 µM |

| Compound | cell line | test | conditions | how to read | quantity | result |
| --- | --- | --- | --- | --- | --- | --- |
| CC(=O)O[C@H]1C(=O)[C@@]2(C)[C@H]([C@H](OC(=O)c3ccccc3)[C@]3(O)C[C@H](OC(=O)[C@H](O)[C@@H](NC(=O)c4ccccc4)c4ccccc4)C(C)=C1C3(C)C)[C@]1(OC(C)=O)CO[C@@H]1C[C@@H]2O | HeLa expressing wild-type P-gp | CellTiter-Glo | 48 h |  | IC50 | 0.081 ± 0.008 µM |
| Cc1cc(N2CCc3c(c(C)nn3CC34CCC(NC(=O)[C@@H]5COCCN5)(CC3)CC4)C2)c2cnn(C)c2n1 | human PBMC | qRT-PCR, measured: RSAD2 mRNA | together with: ssRNA |  | IC50 | 0.0008 ± 0.0001 µM |
| C[C@H](Nc1ccc2c(c1)OCCn1cc(N3C(=O)OC[C@H]3C(F)F)nc1-2)C(N)=O | HCC1954 | growth rate inhibition, CellTiter-Glo | 120 h |  | IC50 | 0.118 µM |
| COc1cc(N2CCC(N3CCN(C)CC3)CC2)ccc1Nc1ncc(Cl)c(Nc2ccccc2P(C)(C)=O)n1 | Ba/F3 EML4-ALK v3, no mutation | cell viability |  |  | IC50 | 0.007 µM |
| Cc1ccc(C(=O)N(CCCN)[C@@H](c2nc3cc(Cl)ccc3c(=O)n2Cc2ccccc2)C(C)C)cc1 | human CD34+ haematopoietic cells | cell viability, CellTiter-Glo | 3 days |  | IC50 | 0.0045 ± 0.001 µM |
| CCOc1cc2ncc(C#N)c(Nc3ccc(OCc4ccccn4)c(Cl)c3)c2cc1NC(=O)/C=C/CN(C)C | Ba/F3 expressing HER2 L755A | cell growth, inhibitor, CellTiter-Glo |  |  | IC50 | 0.0053 µM |
| CC(=O)c1c(O)c(C)c(O)c2c1OC1=CC(=O)C(C(C)=O)C(=O)C12C (single isomer, unassigned; (+)) | hepatocytes, iPSC-derived, line W1 | cell viability | 24 h |  | IC50 | 28 µM |
| Cn1cc(-c2ccc(-c3cncc(Cl)c3N3CCC4(CCNC4=O)CC3)cc2)cn1 | COLO 205 | microarray, measured: MMP2 | concentration not given, 2 h, gene set MMP-2 | relative to: untreated cells | fold change in expression | 2.73 |
| COc1cccc2c1C(=O)c1c(O)c3c(c(O)c1C2=O)C[C@@](O)(C(=O)CO)C[C@@H]3O[C@H]1C[C@H](N)[C@H](O)[C@H](C)O1 | HC-11 | cell growth, WST-1 | 72 h |  | IC50 | 0.02 µM |
| CC(C)(C)Cn1c(N)nc2ccc(-c3[nH]c(C(C)(C)C)nc3-c3ccc(F)cc3)nc21 | Ba/F3 expressing EGFR G719C | cell viability | without IL-3 |  | IC50 | 0.065 µM |
| COc1ccc(F)cc1C(=O)NCc1ccc(-c2nn([C@@H](C)C(F)(F)F)c(N)c2C(N)=O)cc1 | Rec1 | measured: CCL3 | 24 h |  | IC50 | 0.0043 µM |
| Cc1c(C)c2c(c(C)c1O)CCC(C)(COc1ccc(CC3SC(=O)NC3=O)cc1)O2 (stereo not drawn) | hepatocytes, iPSC-derived, line W1 | cell viability, RealTime-Glo MT | 48 h, differentiation day 23 |  | IC50 | 24 µM |
| Nc1nnc(-c2ccccc2O)cc1N1CC2CCC(C1)N2c1ccnc(F)c1 | normal prostate epithelial cells | cell viability, CellTiter-Glo | 168 h |  | IC50 | > 1 µM |
| C[C@]1(c2nc3c(C(N)=O)cccc3[nH]2)CCCN1 | A549 wild type | PARylation, inhibitor |  |  | IC50 | 0.0328 µM |
| Cc1nc(NC(=O)N2CCC[C@H]2C(N)=O)sc1-c1ccnc(C(C)(C)C(F)(F)F)c1 | KPL4 | CellTiter-Glo | 120 h |  | IC50 | 0.687 µM |
| Cc1ncsc1-c1ccc(CNC(=O)[C@@H]2C[C@@H](O)CN2C(=O)[C@@H](NC(=O)C2(F)CC2)C(C)(C)C)c(OCCOc2ccc(CN3CCN(c4cc(-c5ccccc5O)nnc4N)CC3)cc2)c1 | NCI-H522 SMARCA4/SMARCA2-deficient | cell viability, CellTiter-Glo | 7 days |  | IC50 | > 1 µM |
| Nc1ncn([C@@H]2O[C@H](CO)[C@@H](O)[C@H]2O)c(=O)n1 | OCI-Ly1 |  | 0.1 µM, 120 h |  | viability | 186% |
| COc1cc2c(c(O)c1OC)C(=O)c1c(cc(C)c(O)c1OC)C2=O | HepaRG co-cultured with HK-2 | MTT | 266.67 µM, 48 h | relative to: untreated control | cell viability | 36.9 ± 1.32% |
| O=C(O)COCC(=O)O | hepatocytes, iPSC-derived, line W1 | cell viability, RealTime-Glo MT | 48 h, differentiation day 23 |  | IC50 | 11800 µM |
| N[C@@H](CC(=O)N1CCN(C(c2ccc(F)cc2)c2ccc(F)cc2)CC1)C(=O)N1Cc2ccccc2C1 | MV4-11 | cell viability, CellTiter-Glo | day 5 |  | IC50 | 1.7 µM |
| COc1cc(C[C@H]2COC(=O)[C@@H]2Cc2ccc(O)c(OC)c2)ccc1O | neuroblastoma M2, no MYCN induction | cell viability, SRB | without doxycycline |  | IC50 | 3.7 µg/mL |
| [NH2][Pt]([NH2])([Cl])([Cl])([O]C(=O)CCCc1ccccc1)[O]C(=O)C(Cl)Cl | LoVo oxaliplatin-resistant | cytotoxicity, MTT | 72 h |  | IC50 | 0.037 ± 0.02 µM |
